Experimental data gathered from unrelated publications.
Lines come from different studies, so protocols differ.

N.N.O=C([O-])C1(C(=O)[O-])CCC1.[Pt+2]
AUC(0-inf) (refers to: unbound platinum; human, plasma ultrafiltrate; intravenous, AUC 3, median, dose level -2): 36700 ng·h/mL

O[C@H]1CCCN[C@@H]1CCCn1cnc2c(Cl)c(Cl)ccc21
AUC(0-inf) (healthy humans, plasma; oral, 150 mg single dose): 930 ng·h/mL

Cc1ncc2n1-c1ccc(Cl)cc1C(c1ccccc1F)=NC2
AUC(0-inf) (human, plasma; oral, 2 mg, day 1, single dose alone, geometric LS mean): 26.9 ng·h/mL

O=c1ccc2ncc(=O)n3c2n1C[C@H]3CN1CCC(NCc2cc3c(cn2)OCCC3)CC1
AUC(0-inf) (healthy human volunteers, plasma; oral, 1500 mg, alone, arithmetic mean): 20000 ng·h/mL

C[C@]1(CO)Cc2ncn(-c3ccc(C#N)c(Cl)c3)c2C(=O)O1
AUC(0-inf) (human, Chinese, plasma; 20 mg single dose, geometric mean): 7 µM·h

OCc1ncc2n1-c1ccc(Cl)cc1C(c1ccccc1F)=NC2
AUC(0-inf) (humans, plasma; 3 mg of midazolam, midazolam alone): 15.4 ng·h/mL

C[C@@](Cc1ccc(O)c(O)c1)(NN)C(=O)O
AUC(0-inf) (refers to: levodopa; healthy human volunteers, plasma; subcutaneous, dose not given, 24 h infusion, geometric mean, crossover): 2790 ng·h/mL

COc1ccc(C[C@@H]2NC(=O)[C@H]([C@@H](C)O)NC(=O)[C@@H]3[C@@H]4CCN3C(=O)[C@@H]3Cc5cn(c6ccc(F)cc56)CCCCCCN(Cc5ccc(cc5)CCNC(=O)[C@]5(C)CCCN5C2=O)C(=O)CCC(=O)N[C@@H](C)C(=O)N[C@H](CNC(=O)CCCCC[N+](C)(C)C)C(=O)N[C@@H](Cc2cccc(c2)CNC(=O)CO4)C(=O)N3)cc1
AUC(0-inf) (human, plasma; oral, 40 mg single, fasted (lower-fat comparison), geometric mean, with: sodium caprate 720 mg): 0.505 µM·h

CC(=O)c1c(C)c2cnc(Nc3ccc(C4CCN(CCS(C)(=O)=O)CC4)cn3)nc2n(C2CCCC2)c1=O
AUC(0-inf) (human, dose-escalation trial, plasma; oral, 100 mg twice daily, day 21, multiple doses): 3560 ng·h/mL

OCc1ncc2n1-c1ccc(Cl)cc1C(c1ccccc1F)=NC2
AUC(0-inf) (human, plasma; oral, 2 mg midazolam, day 1, midazolam alone, geometric mean): 6.66 ng·h/mL

OCc1ncc2n1-c1ccc(Cl)cc1C(c1ccccc1F)=NC2
AUC(0-inf) (human, plasma; oral, 7.5 mg of midazolam, day 1, geometric mean, no amenamevir): 44.9 ng·h/mL

CC(C)[C@H](N)C(=O)NCCCS(=O)(=O)O
AUC(0-inf) (human, plasma; oral, 265 mg twice daily, week 65, steady state): 11300 ng·h/mL

COC[C@@H](NC(C)=O)C(=O)NCc1ccccc1
AUC(0-inf) (fluorescence quenching; human healthy male, plasma; oral, 100 mg single): 48800 ng·h/mL

OCc1ncc2n1-c1ccc(Cl)cc1C(c1ccccc1F)=NC2
AUC(0-inf) (human; dose not given, metabolite of midazolam, with: midazolam alone): 12.1 ng·h/mL

OCc1ncc2n1-c1ccc(Cl)cc1C(c1ccccc1F)=NC2
AUC(0-inf) (human; dose not given, with: risdiplam): 9.41 ng·h/mL

O=C(O)C[C@H](O)C[C@H](O)/C=C/c1c(C2CC2)nc2ccccc2c1-c1ccc(F)cc1
AUC(0-inf) (human, plasma; oral, 2 mg): 67.3 ng·h/mL

For quick reference, copied from above:
CC(C)[C@H](N)C(=O)NCCCS(=O)(=O)O
AUC(0-inf) (human, plasma; oral, 265 mg twice daily, week 65, steady state): 11300 ng·h/mL
